Experimental data from different studies.
± gives the spread as reported.

With `CC(C)C1=CC2=CC[C@@H]3[C@](C)(CCC[C@@]3(C)C(=O)OCC#CCN3CCCC3)[C@H]2CC1` the EC50 was 11 µM (SARS-CoV-2 pseudovirus; viral replication).
`Oc1cccc(O)c1-c1c2nc(c(-c3c(O)cccc3O)c3ccc([nH]3)c(-c3c(O)cccc3O)c3nc(c(-c4c(O)cccc4O)c4ccc1[nH]4)C=C3)C=C2` gave an EC50 of 0.19 ± 0.03 µg/mL (vaccinia virus; viral replication; BSC-40, Western Reserve).
The EC50 of `C#CCN1C(=O)C(CC#C)(C(=O)OCC)Oc2ccccc21` (stereo not shown) is reported as greater than 128 µg/mL (Xanthomonas oryzae pv. oryzicola; bacterial growth).
With `CC(NC(=O)NNS(=O)(=O)c1ccc(OC(F)F)cc1)(C(F)(F)F)C(F)(F)F` the EC50 was 1 µM (Mammarenavirus guanaritoense; viral replication; Vero).
For `CC(C)Oc1ccc(-n2cnc3cc(/C=C\c4ccc(C(C)(C)O)cc4)ccc32)cc1`, the EC50 was 6.62 ± 2.3 µM (Lassa virus; Huh-7).
`CC(=O)OC1(C)CC(C=C(C)CCC=C(C)C)OC2(C=C(CO)C3CC(=O)C(C)=CC3O2)C1` (stereo not shown) gave an EC50 of 0.4 µM (SARS-CoV-2 Omicron BA.1; viral replication, dsRNA staining; Calu-3).
For `[N-]=[N+]=N[C@]1(CO)O[C@@H](n2ccc(N)nc2=O)C(F)(F)[C@@H]1O`, the EC50 was 0.37 ± 0.11 µM (Nipah virus; viral replication; NCI-H358).
The EC50 of `Nc1ccn(C[C@@H](CO)OCP(=O)(O)OCCCS(=O)(=O)CCCCCCCCCCCCCC2CCC2)c(=O)n1` is reported as 8.95 µM (vaccinia virus; viral replication; HFF, Copenhagen).
For `O=C1/C(=N\NC(=S)NN=Cc2cccs2)c2ccccc2N1Cc1ccccc1`, the EC50 was greater than 20 µM (vaccinia virus; viral cytopathogenicity; HEL).
`O=S(=O)(O)c1c2ccccc2c(-c2c3nc(c(-c4c5ccccc5c(S(=O)(=O)O)c5ccccc45)c4ccc([nH]4)c(-c4c5ccccc5c(S(=O)(=O)O)c5ccccc45)c4nc(c(-c5c6ccccc6c(S(=O)(=O)O)c6ccccc56)c5ccc2[nH]5)C=C4)C=C3)c2ccccc12` gave an EC50 of 0.55 ± 0.14 µg/mL (vaccinia virus; extracellular enveloped virus; BSC-40, IHD-J).
`O=C(O)c1cn2c(c(O)c1=O)C(=O)N(Cc1ccc(F)cc1F)C[C@@H]2C(c1ccccc1)c1ccccc1` has an EC50 of 0.0062 µM (Mammarenavirus choriomeningitidis; viral replication; KB).
With `COc1cccc(NC(=S)NNC(=O)c2ccccn2)n1` the EC50 was 0.73 µM (MERS-CoV; viral replication; Vero; 24 h).
With `O=S(=O)(O)c1cccc(-c2c3nc(c(-c4cccc(S(=O)(=O)O)c4Cl)c4ccc([nH]4)c(-c4cccc(S(=O)(=O)O)c4Cl)c4nc(c(-c5cccc(S(=O)(=O)O)c5Cl)c5ccc2[nH]5)C=C4)C=C3)c1Cl` the EC50 was 1 ± 0.2 µg/mL (vaccinia virus; viral replication; CV-1, Western Reserve).
`Nc1nc(Nc2ccc(Cl)c(Cl)c2)nn1S(=O)(=O)c1ccc2ccccc2c1` gave an EC50 of 5 µM (Powassan virus; viral replication; BHK-21, LB).
With `CO/C1=C\C(C)=C\[C@@H](C)[C@@H](O)[C@@H](C)C/C(C)=C/C=C/[C@H](OC)[C@@H]([C@@H](C)[C@@H](O)[C@H](C)C(=O)/C=C/[C@H](C)[C@H](O)C(C)C)OC1=O` the EC50 was 0.022 µM (SARS-CoV-2 Omicron BA.2; viral replication, dsRNA staining; Calu-3).
`O=S(=O)(O)c1cccc(-c2c3nc(c(-c4cccc(S(=O)(=O)O)c4F)c4ccc([nH]4)c(-c4cccc(S(=O)(=O)O)c4F)c4nc(c(-c5cccc(S(=O)(=O)O)c5F)c5ccc2[nH]5)C=C4)C=C3)c1F` has an EC50 of 1.3 ± 0.3 µg/mL (vaccinia virus; viral replication; CV-1, Western Reserve).
`COc1cc(-c2oc3cc(O)cc(O)c3c(=O)c2O[C@@H]2O[C@H](CO)[C@@H](O)[C@H](OC(C)=O)[C@H]2O)ccc1O` gave an EC50 of 24 ± 0.35 µM (Influenza A virus; viral replication; MDCK, A/Tern/South Africa/1/61(H5N3)).
`Cc1cn(C2CC(N(C)C)C(CO)O2)c(=O)[nH]c1=O` (stereo not shown) has an EC50 of greater than 0.37 µM (vaccinia virus; viral replication; HEL).
The EC50 of `CC(=O)c1ccc2c(c1)N(CCCN(C)C)c1ccccc1S2` is reported as 21 ± 11 µM (SARS coronavirus; Vero 76, Urbani).
`COc1cc(-c2oc3cc(O[C@@H]4O[C@H](CO)[C@@H](O)[C@H](O)[C@H]4O)cc(O)c3c(=O)c2O[C@@H]2O[C@H](CO[C@@H]3O[C@@H](C)[C@H](OC(C)=O)[C@@H](O)[C@H]3OC(C)=O)[C@@H](O)[C@H](O)[C@H]2O)ccc1O` has an EC50 of 218.4 ± 0.79 µM (Influenza A virus; viral replication; MDCK, A/Tern/South Africa/1/61(H5N3)).
`Nc1nc(Nc2ccc(Cl)cc2)nn1S(=O)(=O)c1ccc2ccccc2c1` has an EC50 of greater than 7.9 µM (Japanese encephalitis virus; viral replication; Vero 76, SA-14).
The EC50 of `COc1cc(-c2oc3cc(O)cc(O)c3c(=O)c2O[C@@H]2O[C@H](CO[C@@H]3O[C@@H](C)[C@H](O)[C@@H](O)[C@H]3O)[C@@H](O)[C@H](OC(C)=O)[C@H]2O)ccc1O` is reported as 135.1 ± 0.67 µM (Influenza A virus; viral replication; MDCK, A/Tern/South Africa/1/61(H5N3)).
With `O=c1cc(-c2ccccc2)oc2c(Br)c(O)c(O)c(O)c12` the EC50 was 0.49 ± 0.11 µM (Chikungunya virus; viral replication, plaque; Vero; 72 h).
With `COc1cc(-c2oc3cc(O)cc(O)c3c(=O)c2O[C@@H]2O[C@H](CO[C@@H]3O[C@@H](C)[C@H](OC(C)=O)[C@@H](O)[C@H]3OC(C)=O)[C@@H](O)[C@H](O)[C@H]2O)ccc1O` the EC50 was 70.6 ± 0.76 µM (Influenza A virus; viral replication; MDCK, A/Tern/South Africa/1/61(H5N3)).
For `C=CCN1C(=O)C(CC=C)(C(=O)OCC)Oc2cc(F)ccc21` (stereo not shown), the EC50 was greater than 128 µg/mL (Xanthomonas oryzae; microbial growth).
`O=C[C@H](C[C@@H]1CCNC1=O)NC(=O)[C@H](Cc1ccccc1)NC(=O)/C=C/c1cccc(Br)c1` has an EC50 of 1.4 µM (Middle East respiratory syndrome-related coronavirus; viral replication; Huh-7; 48 h).
`CCC(NC(=O)NNS(=O)(=O)c1ccc(C)cc1)(C(F)(F)F)C(F)(F)F` has an EC50 of 0.15 µM (Mammarenavirus machupoense; viral replication; Vero).
`CCOC(=O)C1(Cc2ccccc2)Oc2cc(F)ccc2N(Cc2ccccc2)C1=O` (stereo not shown) gave an EC50 of greater than 128 µg/mL (Xanthomonas oryzae pv. oryzicola; bacterial growth).
For `Cc1nc(N2CCC(N(C)c3cc(C(=O)NCCN4CCCC4)cnn3)CC2)nc(C)c1CC(C)C`, the EC50 was 0.64 µM (SARS coronavirus; viral replication).
The EC50 of `COc1ccc(-c2c3nc(c(-c4ccc(OC)c(S(=O)(=O)O)c4)c4ccc([nH]4)c(-c4ccc(OC)c(S(=O)(=O)O)c4)c4nc(c(-c5ccc(OC)c(S(=O)(=O)O)c5)c5ccc2[nH]5)C=C4)C=C3)cc1S(=O)(=O)O` is reported as 0.5 ± 0.1 µg/mL (vaccinia virus; extracellular enveloped virus; CV-1, IHD-J).
With `CSCC[C@@H](C=O)NC(=O)[C@H](CC(C)C)NC(=O)[C@H](CC(C)C)NC(C)=O` the EC50 was 5.58 ± 0.74 µM (SARS coronavirus; viral replication; Vero 76; 96 h).

A few entries again:
For `O=C1/C(=N\NC(=S)NN=Cc2cccs2)c2ccccc2N1Cc1ccccc1`, the EC50 was greater than 20 µM (vaccinia virus; viral cytopathogenicity; HEL).
`O=S(=O)(O)c1c2ccccc2c(-c2c3nc(c(-c4c5ccccc5c(S(=O)(=O)O)c5ccccc45)c4ccc([nH]4)c(-c4c5ccccc5c(S(=O)(=O)O)c5ccccc45)c4nc(c(-c5c6ccccc6c(S(=O)(=O)O)c6ccccc56)c5ccc2[nH]5)C=C4)C=C3)c2ccccc12` gave an EC50 of 0.55 ± 0.14 µg/mL (vaccinia virus; extracellular enveloped virus; BSC-40, IHD-J).
`O=C(O)c1cn2c(c(O)c1=O)C(=O)N(Cc1ccc(F)cc1F)C[C@@H]2C(c1ccccc1)c1ccccc1` has an EC50 of 0.0062 µM (Mammarenavirus choriomeningitidis; viral replication; KB).
With `COc1cccc(NC(=S)NNC(=O)c2ccccn2)n1` the EC50 was 0.73 µM (MERS-CoV; viral replication; Vero; 24 h).
